Results from different studies.
Each line is one published result; not all experiments were run side by side.

| Compound | test system | setting | concentration |
| --- | --- | --- | --- |
| CC[C@H](C)/C=C/C=C/C=C/C(O)=C/C(=O)C(F)(F)F | female C57BL/6 mouse, plasma | oral, 25 mg/kg, 4 h | > 1000 nM |
| C=CC(=O)N1CC2C(=O)N(CCN(C)C)c3c(c4cc(Cl)c(-c5c(O)cccc5F)nc4n(-c4c(C)ccnc4C(C)C)c3=O)N2CC1C (stereo not drawn) | nude mouse, CSF | oral, 100 mg/kg, 1 h | 230 nM |
| O=C1CCC(N2Cc3cc(C(=O)O)c(F)cc3C2=O)C(=O)N1 (stereo not drawn) | male CD-1 mouse, plasma | intravenous, 1 mg/kg, 2 h | 18.4 ng/mL |
| Cc1ncsc1-c1ccc(CNC(=O)[C@@H]2C[C@@H](O)CN2C(=O)[C@@H](NC(=O)COCC(C)(COCCOCCOCCNC(=O)C[C@@H]2N=C(c3ccc(Cl)cc3)c3c(sc(C)c3C)-n3c(C)nnc32)COCCOCCOCCNC(=O)C[C@@H]2N=C(c3ccc(Cl)cc3)c3c(sc(C)c3C)-n3c(C)nnc32)C(C)(C)C)cc1 | male C57BL/6 mouse, plasma | subcutaneous, 5 mg/kg, 1 h, single dose | 2260 ng/mL |
| CC(C)n1ncc2c(C(=O)NC[C@@H](C)N)cc(C3CC3)nc21 | female BALB/c mouse, plasma | intraperitoneal, 30 mg/kg, 15 min | 1230 ng/mL |
| Cc1c2ccnc(C(=O)N[C@H](C)CN(C)C)c2cc2c3cc(OCCCN4CCN(C)CC4)ccc3n(C)c12 | male C57BL/6 mouse, brain | intraperitoneal, 10 mg/kg, 2 h, single dose | 240 nM |
| COc1cccc(C2CC(c3ccccc3Cl)Nc3nc(N)nn32)c1 (stereo not drawn) | male CD-1 mouse, brain | intraperitoneal, 20 mg/kg, 30 min, single dose | 17000 nM |
| CC(C)(O)c1ccc(N2Cc3c(ccnc3-c3ccc(F)cc3OCC(F)(F)F)C2=O)cc1 | male C57BL/6 mouse, brain | oral, 10 mg/kg, 6 h | 773 ng/g |
| [2H]C([2H])(N)C([2H])([2H])NC(=O)c1cc(C2CC2)nc2c1cnn2C(C)C | female BALB/c mouse, plasma | intraperitoneal, 50 mg/kg, 2 h | 1600 ng/mL |
| Cc1cc(C(=O)N[C@@H](CC(=O)NC(C)(C)C)C(=O)NCCNC(=O)c2cc(-c3ccccc3)ccn2)no1 | mouse, plasma | intravenous, 0.1 mg/kg, 5 min | 60.4 ng/mL |
| CC(C)n1ncc2c(C(=O)NCCN(C)C)cc(C3CC3)nc21 | female BALB/c mouse, plasma | intraperitoneal, 50 mg/kg, 5 h | 20.9 ng/mL |
| C=CC(=O)N1CCCC(n2c(=O)c3ncccc3n(Cc3ccc(Oc4ccccc4)cc3)c2=O)C1 (stereo not drawn) | male BALB/c mouse, plasma | oral, 200 mg/kg, 4 h | 5590 ng/mL |

Repeated from above:
| Compound | test system | setting | concentration |
| --- | --- | --- | --- |
| COc1cccc(C2CC(c3ccccc3Cl)Nc3nc(N)nn32)c1 (stereo not drawn) | male CD-1 mouse, brain | intraperitoneal, 20 mg/kg, 30 min, single dose | 17000 nM |
